Experimental data collected from several papers.
Parts stem from different laboratories: compare values within a part only.

Series 1
Target: Interferon regulatory factor 3, full length, phosphomimetic (IRF3, Homo sapiens, UniProt Q14653, residues 1-427, S386D/S396D/S398D/S402D/T404D/S405D)
Technique: protein-binding microarray
Form: double-stranded DNA, one strand shown
Matrix: in vitro
Concentration: 2540 nM top
Notes: 60-bp whole probe
Added: salmon DNA 0.4 mg/ml
Baseline: random background probes
Reading: higher = stronger binding
Shared flanks, not repeated: GCCTAGCAC … GTCTTGATTCGCTTGACGCTGCTG
Construct (chain): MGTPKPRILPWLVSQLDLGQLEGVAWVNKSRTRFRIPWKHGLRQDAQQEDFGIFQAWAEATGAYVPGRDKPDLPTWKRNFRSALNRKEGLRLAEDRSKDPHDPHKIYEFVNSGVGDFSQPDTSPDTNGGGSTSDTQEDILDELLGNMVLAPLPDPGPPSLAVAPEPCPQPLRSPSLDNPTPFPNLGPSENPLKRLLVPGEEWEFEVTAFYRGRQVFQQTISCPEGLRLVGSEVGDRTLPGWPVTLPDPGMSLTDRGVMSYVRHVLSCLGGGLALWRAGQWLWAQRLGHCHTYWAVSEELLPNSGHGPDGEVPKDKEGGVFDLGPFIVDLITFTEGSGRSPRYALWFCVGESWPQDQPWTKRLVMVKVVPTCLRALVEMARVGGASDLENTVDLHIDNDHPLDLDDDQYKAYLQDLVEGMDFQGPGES
Oligonucleotide	fitted relative affinity
GGGATTTTTAGTTAGAAAAAGTGCTAG	0.0124 z-score
GACGGTGTCGGGTTTCGGGACGTGCTA	2.24 z-score
TTTCCCATGAGTCTCAAAATGTGCTAG	3.53 z-score
TTAGGTATCGGTCACGGTTAGTGCTAG	1.46 z-score
TTAGATTCCAGTTTCGCTTAGTGCTAG	4.67 z-score
TTAGATTTCAGGCTGGATTAGTGCTAG	-0.0139 z-score
TTAGGTATAGGGTATCGGTTAGTGCTA	0.147 z-score
TTTGTCATCTATAATGGATATGTGCTA	0.62 z-score
GACGCTTTCAGACTGGAGACGTGCTAG	0.803 z-score
GACGGACTGGGCTTCGGGACGTGCTAG	-0.921 z-score
TCCTCTTTCTCTGCTACCCTTGTGCTA	3.18 z-score
GACGTTTTCGACACTGGGGACGTGCTA	1.57 z-score
GACTGTATCGGACTGGGGACGTGCTAG	1.35 z-score
TTAGACTTCAGTCTCGATTAGTGCTAG	0.053 z-score
GCTCCTTCCCCTCTAGGTCTGTGCTAG	1.13 z-score
GACGATTCCAGTTACGAGACGTGCTAG	1.17 z-score
GACGTTATCAGACTGGAGACGTGCTAG	0.466 z-score
GACGGTTTCGCCTTTCGGGACGTGCTA	3.91 z-score
TCACATTTGGAAAATGTAACTGTGCTA	0.988 z-score
TTAGATTTCGACTATCGGTTAGTGCTA	0.874 z-score
GACGGTTTCGACTTTCTGGACGTGCTA	3.94 z-score
TCTGTTTTTGCTTTCCTTCAGTGCTAG	2.86 z-score
TTAGGTACCGGGTATCGGTTAGTGCTA	1.13 z-score
GACGGTCTCGGTCTTGGGACGTGCTAG	1.2 z-score
GACGAACTGGGGTATGGAGACGTGCTA	-0.502 z-score

Series 2
Target: RING finger protein unkempt homolog, zinc fingers 1-6, GST-SBP tag (UNK, Homo sapiens, UniProt Q9C0B0, residues 30-357)
UniProt Q9C0B0, sequence (30-357, looked up): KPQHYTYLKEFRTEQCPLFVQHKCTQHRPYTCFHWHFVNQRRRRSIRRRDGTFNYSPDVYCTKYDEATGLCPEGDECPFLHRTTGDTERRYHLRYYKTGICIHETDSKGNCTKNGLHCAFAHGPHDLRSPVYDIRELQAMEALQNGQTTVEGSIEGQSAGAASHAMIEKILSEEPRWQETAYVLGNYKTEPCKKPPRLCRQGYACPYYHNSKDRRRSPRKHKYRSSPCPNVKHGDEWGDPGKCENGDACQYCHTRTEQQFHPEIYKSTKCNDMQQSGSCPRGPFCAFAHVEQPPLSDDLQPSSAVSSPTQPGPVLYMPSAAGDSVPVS
Technique: RNA Bind-n-Seq
Form: RNA
Matrix: in vitro
Concentration: not given
Notes: RNA with constant flanks, ends assumed
Baseline: input RNA pool
Reading: higher = stronger binding
Oligonucleotide	bound/input enrichment
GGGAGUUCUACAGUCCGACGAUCCCUGUUCUCAUUUCAGCUAUGAAGAUUUUUGUUACAACCAAAAACUCAAAAAACCAAGGAACCGAAGAAGCUUUGAAAAAUCGAAAUUUUACUGUAGAAAAGAUGAGUGCUGAAAUUAACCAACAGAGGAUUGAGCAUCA	0.263 ratio
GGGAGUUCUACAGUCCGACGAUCUCACCACAGAGCAUUUUAGAUGAUGUUGCCAUGGUACUAGAUGAAGAAGCAGAAGUUUUUACCGUCAAAAUGUGGAGAUUAUUGAUAUAUGAAACAGAAGCCAAGAAAAUUGGCCUUGUGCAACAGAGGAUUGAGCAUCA	0.551 ratio
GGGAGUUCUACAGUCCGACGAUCGUUUUUGACAAUUUUUUUAUCAAGAAAGAGCAAAUAAAAAGCAGUGGUAAUGAUCCAAAGUACCGUACAACCACAGCUCAGAAUUCCAGCAGUUCAUCCAGUCAGAGCAAAAUGGUUAAUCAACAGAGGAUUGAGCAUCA	0.279 ratio
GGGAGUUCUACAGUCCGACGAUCGAAAUUAUUAAAAACAAGGGGGGUGGGUAAUAAAUGUAUAUAACAUUAAAUAAUGUAACGCCGGUGCCGAUUCCCAAAUGCAUUUGGAUGUACAGAUCGACUACAGAGUACUUUUUUCUUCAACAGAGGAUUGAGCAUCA	0.316 ratio
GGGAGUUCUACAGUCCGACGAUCCACACAAUGUUUUUACAAGAUUUUAGACCAUUUCUAAGUAGCAAUCCACUGGACCAAGAUAACCGAGCCAAUGAGAGAGGUCACCAAACUCACACUGACUUUUGGGGACCAAGUCGGCCUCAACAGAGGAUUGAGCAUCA	1.34 ratio
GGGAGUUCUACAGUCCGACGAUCCCCCAAUACCAUUUGCAGGUCUGGAACUGCACUCUCUUUUUUAAAAAACAUGUAUACAUUUCCGGGCUGUAGAUUUAUUUUCCUGGUUUUGUUUUUCAUUGCUGACUUUUGAGCACAGAACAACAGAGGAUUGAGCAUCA	1.54 ratio
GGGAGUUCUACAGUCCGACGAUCGUCACUUGUGUUGCUGCCUCUCCUCACAAGGACUCUGUGUUUCUUUCAUGCAGCGAGGACAACCGAAUUUUACUCUGGGAUACCCGCUGUCCCAAGCCAGCAUCACAGAUUGGCUGCAGUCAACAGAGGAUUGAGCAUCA	0.513 ratio
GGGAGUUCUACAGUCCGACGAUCAUUUGUUUCUUAUAAUAGCCCCUGGAGGAAUUGCUACACCCCCAGUGUAUGGUCAGCUUCCCGCUUUAUAUUUGCUCCAUAAUGACAUGAAUAAUGCAAGAUAUCUUUGGAAAAGAAUACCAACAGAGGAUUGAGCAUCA	0.381 ratio
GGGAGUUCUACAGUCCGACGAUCGAAAUGAAAUACUACAUAGUGCAUUUGAAACGCCACUUUAUGUUUCGAAACCAUCUCUGUUCCGUUUUUGAAAUGCUGUCCUACAACCUCUAUGACUUGCUGAGAAACACCAAUUUCCGACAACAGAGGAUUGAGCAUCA	0.204 ratio
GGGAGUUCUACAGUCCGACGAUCCAAUUACUGGAAAAUAAAAGGAGUUCAUGUAGUUUUUGUCCAGGCUUGAGUCACCAUGAGCCGCCGUUUAGGAAAAGAAAAAGACUCUAAAGAAAAAGAUCCCAAAGUACCAUCAGCCAACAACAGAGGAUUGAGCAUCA	0.561 ratio
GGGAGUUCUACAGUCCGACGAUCCAGAUGAGGAAACUGAGGCCCAGAGAAGCAGAAAGGACUUCUCUGAACCUCACUGUAAAUCCGCAUUAAAUGCAGCCGUCCUACUACUGGCAUUUUACCUACAAAAAUUUUGCUAGGGAUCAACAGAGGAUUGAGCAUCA	0.129 ratio

Series 3
Target: RNA binding protein fox-1 homolog 2, RRM domain, GST-SBP tag (RBFOX2, Homo sapiens, UniProt O43251-10, residues 100-194)
Technique: RNA Bind-n-Seq
Form: RNA
Matrix: in vitro
Concentration: 365 nM
Notes: natural RNA segment, single round, ends assumed
Baseline: no-protein control
Reading: higher = stronger binding
Target sequence (chain): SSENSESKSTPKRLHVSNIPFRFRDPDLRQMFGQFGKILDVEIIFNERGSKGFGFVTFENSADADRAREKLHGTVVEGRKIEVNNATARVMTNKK
Oligonucleotide	RBNS enrichment (R)
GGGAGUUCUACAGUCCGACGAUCCUUCCCCUCUCCCUACAAAUGGAACCUUGUGGAAACAGGAUGCUAAACACCUUCUGAUGGAGCUGUUGCCUGCAGGCCACUGGUCUUUGGGAAUUUUCAAUAAAGUGCUUUGGAAUUCUCGGGUGCCAA	0.722
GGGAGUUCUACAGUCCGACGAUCCUGGAACCCCAGGCCAAAUGUAUGCUCUGCUUCCUUGAGUGCUGUAAGAGUUCCCACUGGCCUUGCUCUGAGGCCAAGAGCUUUUUCAAAUGCAGGCUGCAGGAUUAAGCUGGAAUUCUCGGGUGCCAA	0.652
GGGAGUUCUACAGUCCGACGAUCUAGUGUGUGCCUUCUAUAAAGGAGAAAGCAGCAAGGCCAUGUCCUUAGCAGGAACCUUUGCUAGCCACCUAGUGAAUGCCUGUAACAGGGUCUCUGAGCUGACUCUGUAUUGGAAUUCUCGGGUGCCAA	0.226
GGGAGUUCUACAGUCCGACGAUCCUGAGAGGUAACAAAUGGGAUAUGGGUUGAGACUGCAUAAAAAACGUACUGCUGGUUGAAUAUCUGAGGUAAAUGAUGUUCAAUCAAGAUGCUACUUGUAUCAUUUUGCCUGGAAUUCUCGGGUGCCAA	0.37
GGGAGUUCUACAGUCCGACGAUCCAUUCUAUACAAAACUGUGCUGUGACCUUGCGGUAGGCCUGGAUCUGGCAAAGAGAAUACAAAUGAAACCCCUUCUUUCUCUUUCCGUCCAACAACUCUGUAGAGCUCUCUGGAAUUCUCGGGUGCCAA	0.827
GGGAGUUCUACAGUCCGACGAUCAUCACUCAGACAGCACUUCCACGGACAAGUCCCUGUCAAAACUGACCCAUGCUGGUGGAGAACAGACGUCAAUCAUUCCCGUCCAUCAGGUUAUUGAUAAGGUCAAGGGUUGGAAUUCUCGGGUGCCAA	0.23
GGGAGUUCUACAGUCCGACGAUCUUGUAAAGGCCCCACGAGAGCGGGCCAGGCCGUGUGCCUCAGGCCCUUCUCCCUGGGUGUGCUUAAGGGGGCUCCUUGGGCCCGCCUCCCCAGGAGGUAGAAAAUGAGUGUGGAAUUCUCGGGUGCCAA	0.258
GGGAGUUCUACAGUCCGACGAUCCAGACACAAACAGGCCCAUAGCCUCUCCUCUGCUGUUAGAGCAAUGCAGCUGGGCCCAGAACACCCAUGAUGAGGUUCACUGCGUCUACCCUGCACCUCGCACAGAACCAUGGAAUUCUCGGGUGCCAA	0.654
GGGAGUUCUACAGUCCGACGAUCUCAGGAGGACAGGACGCUGCUUUAGGGAAGUAUCAAAUUCCGUAUUGAAGAAAAGCUUUCAGAGGGCAUGUAUAGGAAGUGAUUUUGGGGAAGUCGUUUUUUGUUUGUUUUGGAAUUCUCGGGUGCCAA	3.17

Series 4
Target: Phosphate system positive regulatory protein PHO4, full length, GST-tagged (PHO4, Saccharomyces cerevisiae, UniProt P07270, residues 1-312)
Technique: competition protein-binding microarray
Form: double-stranded DNA, one strand shown
Matrix: in vitro
Concentration: 2 µM
Notes: whole 60-bp probe, lowest competitor level
Added: Cbf1 competitor, 0.05 µM
Reading: higher = stronger binding
Construct (chain): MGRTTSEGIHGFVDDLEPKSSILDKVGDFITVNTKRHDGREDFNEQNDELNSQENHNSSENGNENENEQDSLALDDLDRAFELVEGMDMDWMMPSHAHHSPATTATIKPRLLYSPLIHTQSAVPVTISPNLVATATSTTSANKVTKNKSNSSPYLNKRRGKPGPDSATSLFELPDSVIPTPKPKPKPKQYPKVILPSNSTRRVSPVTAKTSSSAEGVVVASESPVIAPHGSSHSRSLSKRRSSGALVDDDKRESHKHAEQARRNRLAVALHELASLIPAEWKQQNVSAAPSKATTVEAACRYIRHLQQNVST
Oligonucleotide	fluorescence intensity [a.u.]
TGCGCAACAACTTGCTGGGTGGGTGTATGTCTAGAAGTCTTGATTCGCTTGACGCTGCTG	4880
ATTTCGATGTACATCCTCGTGATGGTAAATATGGCCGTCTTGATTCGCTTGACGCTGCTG	8710
AAAGCGGTAATTTGCTTCGTGGGTGCAGATATCTATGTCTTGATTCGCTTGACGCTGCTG	6450
CTAACGAAGGTTTATCACGTGTTTTACAAGCCAAGTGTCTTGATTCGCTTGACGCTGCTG	13400
CCCGGGGCGTCGGCGCACGCGGTCCCCACCGGCCGGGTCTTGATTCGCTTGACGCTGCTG	10700
GTCTTGTCTCATTGTCTAGTGGGTGTCCCCACTTCAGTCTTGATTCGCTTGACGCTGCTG	4400
ATTCTGAGCAATATCTCCGTGCCAGAAATAAGCCCCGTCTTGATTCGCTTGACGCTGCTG	4890
CGGCCGGAGTTTTATCACATGGATGTTTCTTATTCCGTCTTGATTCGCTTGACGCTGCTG	7790
AATCTCTGGCTTCACCACGTTTTCCAGCTTCAAAGAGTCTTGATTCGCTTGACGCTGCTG	12000
TATAGGGCTCTGAGTCTCGTGGTCGAGGAATCCGGCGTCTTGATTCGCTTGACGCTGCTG	8020
AGTATCCTCGACCTACACGTCTTCACCATCAGCACCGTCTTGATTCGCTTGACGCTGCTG	7180
CCAAGTTAGAAGAAACATGTGACGCCATTTCTGCGGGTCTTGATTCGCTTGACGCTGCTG	8680
CGGGGTTAAGTTTGCTGCGTGGGTGGCTTGCAGCAGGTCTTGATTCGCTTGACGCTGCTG	8580
TGAACCCTTACTTACTGCGTGACTCGGTTGATTTAGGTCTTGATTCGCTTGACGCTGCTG	5860
GGCAAAAGCTTACTTTCCGTGCCGAAGGTGTTGTTAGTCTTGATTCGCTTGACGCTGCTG	4830
